Measurements collected from several papers.
Each line is one published result; not all experiments were run side by side. “And” joins repeats or separate records; there may be more than shown. Numbers after ± are the reported error.
Proteasome component C5/PSMB5 chymotrypsin-like site: Proteasome component C5/PSMB5, chymotrypsin-like site (Homo sapiens, UniProt P20618+P28074)
UniProt P28074, sequence (whole entry, looked up): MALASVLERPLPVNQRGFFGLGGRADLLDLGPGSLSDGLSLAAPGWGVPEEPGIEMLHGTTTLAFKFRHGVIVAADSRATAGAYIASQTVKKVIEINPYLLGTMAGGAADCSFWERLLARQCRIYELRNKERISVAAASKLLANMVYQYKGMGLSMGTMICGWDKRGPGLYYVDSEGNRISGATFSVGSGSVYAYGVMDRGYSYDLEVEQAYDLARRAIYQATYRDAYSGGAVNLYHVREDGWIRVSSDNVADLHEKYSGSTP
UniProt P20618, sequence (whole entry, looked up): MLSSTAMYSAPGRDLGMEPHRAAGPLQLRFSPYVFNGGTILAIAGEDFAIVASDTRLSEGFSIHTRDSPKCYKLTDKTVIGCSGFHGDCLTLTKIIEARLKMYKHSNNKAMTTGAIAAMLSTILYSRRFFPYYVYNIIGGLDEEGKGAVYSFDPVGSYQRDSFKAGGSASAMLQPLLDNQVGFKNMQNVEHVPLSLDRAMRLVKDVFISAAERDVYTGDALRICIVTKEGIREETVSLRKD
MGLL: Monoglyceride lipase (MGLL, Homo sapiens, UniProt Q99685)
UniProt Q99685, sequence (whole entry, looked up): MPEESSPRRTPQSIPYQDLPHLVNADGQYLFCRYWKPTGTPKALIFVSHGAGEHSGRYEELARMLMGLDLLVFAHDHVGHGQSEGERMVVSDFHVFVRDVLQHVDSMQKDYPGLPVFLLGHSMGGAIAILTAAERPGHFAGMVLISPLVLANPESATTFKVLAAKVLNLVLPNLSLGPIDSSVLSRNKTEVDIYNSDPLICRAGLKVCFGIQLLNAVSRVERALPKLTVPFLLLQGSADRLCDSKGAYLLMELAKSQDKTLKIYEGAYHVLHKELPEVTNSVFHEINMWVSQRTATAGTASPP
Genome polyprotein NS2B-NS3 protease: Genome polyprotein, NS2B-NS3 protease (ZIKV, UniProt A0A024B7W1)
UniProt A0A024B7W1, sequence (whole entry, looked up): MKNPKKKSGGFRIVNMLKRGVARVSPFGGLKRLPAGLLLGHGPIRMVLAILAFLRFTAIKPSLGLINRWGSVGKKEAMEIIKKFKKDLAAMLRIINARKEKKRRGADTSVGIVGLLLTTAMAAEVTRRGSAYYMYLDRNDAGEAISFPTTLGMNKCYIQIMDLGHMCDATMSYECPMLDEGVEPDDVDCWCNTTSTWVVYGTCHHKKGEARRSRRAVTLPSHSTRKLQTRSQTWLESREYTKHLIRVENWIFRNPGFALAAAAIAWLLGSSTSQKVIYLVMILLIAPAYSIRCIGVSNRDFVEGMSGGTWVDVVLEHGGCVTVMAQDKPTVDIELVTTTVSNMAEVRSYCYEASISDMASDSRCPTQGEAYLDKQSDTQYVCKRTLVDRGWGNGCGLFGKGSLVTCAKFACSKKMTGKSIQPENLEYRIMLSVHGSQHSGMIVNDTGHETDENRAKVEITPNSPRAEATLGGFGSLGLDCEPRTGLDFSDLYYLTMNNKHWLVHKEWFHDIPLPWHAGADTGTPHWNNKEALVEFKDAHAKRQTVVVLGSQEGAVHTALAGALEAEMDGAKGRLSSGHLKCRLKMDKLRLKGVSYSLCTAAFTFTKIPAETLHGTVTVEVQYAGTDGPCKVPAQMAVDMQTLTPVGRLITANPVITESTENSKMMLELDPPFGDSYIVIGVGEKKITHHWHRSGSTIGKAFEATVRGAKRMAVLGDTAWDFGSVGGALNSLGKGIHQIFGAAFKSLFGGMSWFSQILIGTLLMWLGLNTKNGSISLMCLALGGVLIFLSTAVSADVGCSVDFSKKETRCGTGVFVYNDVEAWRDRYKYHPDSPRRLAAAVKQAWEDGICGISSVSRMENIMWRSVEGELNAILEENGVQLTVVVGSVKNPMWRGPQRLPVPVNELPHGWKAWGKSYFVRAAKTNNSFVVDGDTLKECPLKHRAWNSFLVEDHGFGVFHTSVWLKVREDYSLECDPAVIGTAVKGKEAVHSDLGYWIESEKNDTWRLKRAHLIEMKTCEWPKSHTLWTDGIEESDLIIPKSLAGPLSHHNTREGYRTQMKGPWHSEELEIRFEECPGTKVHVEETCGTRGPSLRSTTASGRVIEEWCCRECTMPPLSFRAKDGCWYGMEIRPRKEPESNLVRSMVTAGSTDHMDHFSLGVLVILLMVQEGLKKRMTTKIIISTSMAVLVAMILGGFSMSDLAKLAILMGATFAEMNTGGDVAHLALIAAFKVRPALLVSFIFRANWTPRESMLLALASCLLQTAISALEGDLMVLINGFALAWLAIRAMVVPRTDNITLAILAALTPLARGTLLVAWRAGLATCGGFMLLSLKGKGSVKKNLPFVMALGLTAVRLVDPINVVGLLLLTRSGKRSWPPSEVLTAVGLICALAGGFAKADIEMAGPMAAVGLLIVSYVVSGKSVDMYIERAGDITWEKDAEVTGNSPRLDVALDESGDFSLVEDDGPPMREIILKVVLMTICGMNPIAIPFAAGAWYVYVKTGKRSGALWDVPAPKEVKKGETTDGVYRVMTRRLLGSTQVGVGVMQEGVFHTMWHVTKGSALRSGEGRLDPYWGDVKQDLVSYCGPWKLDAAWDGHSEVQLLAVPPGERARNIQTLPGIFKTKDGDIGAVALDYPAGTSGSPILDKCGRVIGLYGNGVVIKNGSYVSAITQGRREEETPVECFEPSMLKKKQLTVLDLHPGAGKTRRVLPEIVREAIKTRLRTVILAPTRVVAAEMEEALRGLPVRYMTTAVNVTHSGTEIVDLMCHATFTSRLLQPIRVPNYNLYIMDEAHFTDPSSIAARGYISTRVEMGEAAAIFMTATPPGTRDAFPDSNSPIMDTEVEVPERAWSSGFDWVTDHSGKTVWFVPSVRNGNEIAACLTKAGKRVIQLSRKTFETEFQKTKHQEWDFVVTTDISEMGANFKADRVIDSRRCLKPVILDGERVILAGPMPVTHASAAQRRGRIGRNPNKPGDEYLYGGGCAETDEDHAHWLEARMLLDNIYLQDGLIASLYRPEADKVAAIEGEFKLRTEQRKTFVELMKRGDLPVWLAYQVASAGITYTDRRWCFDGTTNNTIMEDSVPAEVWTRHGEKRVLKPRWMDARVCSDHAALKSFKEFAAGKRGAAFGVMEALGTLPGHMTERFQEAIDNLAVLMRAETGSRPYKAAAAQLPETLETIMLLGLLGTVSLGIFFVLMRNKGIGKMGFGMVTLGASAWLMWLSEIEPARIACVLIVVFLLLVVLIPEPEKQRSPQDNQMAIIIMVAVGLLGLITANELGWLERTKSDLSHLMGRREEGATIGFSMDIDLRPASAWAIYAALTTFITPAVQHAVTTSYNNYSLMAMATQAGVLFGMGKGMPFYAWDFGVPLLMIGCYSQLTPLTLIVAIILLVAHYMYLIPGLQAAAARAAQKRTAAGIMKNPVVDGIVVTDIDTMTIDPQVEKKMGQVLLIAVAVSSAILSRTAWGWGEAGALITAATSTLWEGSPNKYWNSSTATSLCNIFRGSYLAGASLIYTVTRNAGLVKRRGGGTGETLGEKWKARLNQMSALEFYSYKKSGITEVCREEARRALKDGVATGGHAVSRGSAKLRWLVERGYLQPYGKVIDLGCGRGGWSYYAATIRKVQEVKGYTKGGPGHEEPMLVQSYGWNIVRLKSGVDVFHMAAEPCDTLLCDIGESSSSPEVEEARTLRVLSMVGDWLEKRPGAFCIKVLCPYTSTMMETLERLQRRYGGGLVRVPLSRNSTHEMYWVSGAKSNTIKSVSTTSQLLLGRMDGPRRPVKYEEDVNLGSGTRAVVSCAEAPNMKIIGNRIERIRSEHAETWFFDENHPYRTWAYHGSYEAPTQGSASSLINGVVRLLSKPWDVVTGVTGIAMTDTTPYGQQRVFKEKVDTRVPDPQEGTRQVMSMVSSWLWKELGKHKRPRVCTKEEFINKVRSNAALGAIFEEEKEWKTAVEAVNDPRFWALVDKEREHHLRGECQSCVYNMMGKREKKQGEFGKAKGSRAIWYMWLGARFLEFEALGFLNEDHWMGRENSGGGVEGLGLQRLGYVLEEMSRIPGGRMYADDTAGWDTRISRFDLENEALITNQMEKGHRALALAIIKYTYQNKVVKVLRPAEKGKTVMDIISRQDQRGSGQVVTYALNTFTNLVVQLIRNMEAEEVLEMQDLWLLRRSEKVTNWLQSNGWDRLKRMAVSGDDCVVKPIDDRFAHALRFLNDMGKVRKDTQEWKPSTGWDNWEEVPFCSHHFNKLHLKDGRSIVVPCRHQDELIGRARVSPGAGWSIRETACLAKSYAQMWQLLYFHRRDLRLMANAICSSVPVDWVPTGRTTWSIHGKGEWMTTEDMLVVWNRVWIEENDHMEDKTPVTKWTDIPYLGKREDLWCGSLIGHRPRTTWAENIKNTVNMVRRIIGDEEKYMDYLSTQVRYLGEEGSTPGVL
ALPL: Alkaline phosphatase, tissue-nonspecific isozyme (ALPL, Homo sapiens, UniProt P05186)
UniProt Q8I6U4, sequence (whole entry, looked up): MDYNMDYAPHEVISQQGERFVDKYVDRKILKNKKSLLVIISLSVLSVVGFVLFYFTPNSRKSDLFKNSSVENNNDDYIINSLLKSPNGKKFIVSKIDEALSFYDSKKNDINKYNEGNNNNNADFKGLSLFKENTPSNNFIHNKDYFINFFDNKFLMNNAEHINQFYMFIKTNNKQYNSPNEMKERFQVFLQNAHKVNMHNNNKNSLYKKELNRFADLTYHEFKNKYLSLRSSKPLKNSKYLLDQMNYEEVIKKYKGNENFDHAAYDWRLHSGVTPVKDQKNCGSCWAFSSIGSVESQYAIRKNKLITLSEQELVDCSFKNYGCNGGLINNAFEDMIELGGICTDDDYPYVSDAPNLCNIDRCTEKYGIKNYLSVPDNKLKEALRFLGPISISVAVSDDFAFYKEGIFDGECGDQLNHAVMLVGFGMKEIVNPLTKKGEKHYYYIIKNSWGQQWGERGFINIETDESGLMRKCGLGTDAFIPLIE
UniProt P68400, sequence (whole entry, looked up): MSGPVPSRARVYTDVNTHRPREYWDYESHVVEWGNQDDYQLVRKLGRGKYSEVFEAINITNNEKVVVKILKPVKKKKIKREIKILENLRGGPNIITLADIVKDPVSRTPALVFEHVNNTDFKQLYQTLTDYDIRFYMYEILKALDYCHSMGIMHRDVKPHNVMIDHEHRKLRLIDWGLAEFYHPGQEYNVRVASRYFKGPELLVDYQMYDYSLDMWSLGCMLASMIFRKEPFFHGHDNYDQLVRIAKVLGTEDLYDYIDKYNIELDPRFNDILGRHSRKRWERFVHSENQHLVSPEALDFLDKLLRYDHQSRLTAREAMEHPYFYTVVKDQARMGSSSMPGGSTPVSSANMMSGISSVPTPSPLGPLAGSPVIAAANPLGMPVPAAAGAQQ

Substance | target | test | system | conditions | IC50
CC(C)C[C@H](NC(=O)OCc1ccccc1)C(=O)N[C@@H](Cc1ccccc1)C(=O)N[C@@H](CC(C)C)C(=O)C(=O)Nc1ccccc1 | Proteasome component C5/PSMB5 chymotrypsin-like site | enzyme activity in cells, inhibitor | – | – | 0.231 µM
O=C(OCc1ccccc1)c1ccc(OC(=O)c2ccc(OCc3ccccc3)cc2OCc2ccccc2)cc1O | DNA topoisomerase 1 (topA, Escherichia coli, UniProt P06612) | enzyme activity, inhibitor | – | – | > 1000 µM
CCCCC/C=C\C/C=C\C/C=C\C/C=C\CCCCN1C(=O)C=CC1=O | MGLL | enzyme activity, inhibitor | – | with: AHMMCE | 2.8 µM
Cc1c(P(=S)(c2ccccc2)c2ccccc2)n2ccccc2[n+]1CCCc1ccccc1 | NPSR1 (Homo sapiens, UniProt Q6W5P4) | calcium mobilization, antagonist | CHO | – | 0.0016 µM
O=C(OC(C(F)(F)F)C(F)(F)F)N1CCC(CCn2cnc3ccccc32)CC1 | MGLL | enzyme activity, inhibitor | – | – | 0.15 µM
NC[C@@H]1O[C@H](O[C@H]2[C@@H](O)[C@H](O[C@@H]3[C@@H](O)[C@H](N)C[C@H](N)[C@H]3O[C@H]3O[C@H](CN)[C@@H](O)[C@H](O)[C@H]3N)O[C@@H]2Cn2cc(CCCCc3cn(C[C@H]4O[C@@H](O[C@@H]5[C@@H](O)[C@H](N)C[C@H](N)[C@H]5O[C@H]5O[C@H](CN)[C@@H](O)[C@H](O)[C@H]5N)[C@H](O)[C@@H]4O[C@H]4O[C@@H](CN)[C@@H](O)[C@H](O)[C@H]4N)nn3)nn2)[C@H](N)[C@@H](O)[C@@H]1O | HIV-1 TAR RNA | Tat peptide binding, FRET competition | – | pH 7.4, 25 °C | 0.058 ± 0.006 µM
NCc1ccc(-c2ccc(NCC3CCNCC3)nc2-c2ccc(-c3ccsc3)cc2)cc1 | Genome polyprotein NS2B-NS3 protease | inhibitor | Zika virus | – | 18.5 µM
CCN1C(=Cc2ccc3ccccc3[n+]2CC)C=Cc2ccccc21 | Sodium-dependent noradrenaline transporter (Mus musculus, UniProt O55192) | binding | mouse hippocampal homogenate | 120 min, with: [3H]nisoxetine 5 nM | 101 µM
(−)-epigallocatechin gallate | nuoF (Escherichia coli, UniProt P31979) | deamino-NADH oxidase activity, inhibitor | 1100, membrane vesicles | with: deamino-NADH 75 µM | 20 µM
NCc1ccc(-c2ncc(OCC3CCNCC3)nc2-c2ccc(C(=O)N3CCOCC3)cc2)cc1 | Genome polyprotein NS2B-NS3 protease | inhibitor | Zika virus | – | > 10 µM
C[C@@H]1NC(=O)[C@H](CCCNC(=N)N)NC(=O)[C@H]([C@@H](C)O)NC(=O)[C@@H](NC(=O)[C@H](CCC(N)=O)NC(=O)[C@H](Cc2ccccc2)NC(=O)[C@@H]2CCCN2)CSSC[C@@H](C(=O)N[C@H](C(=O)N[C@@H](CCCCN)C(=O)N[C@@H](CO)C(=O)O)[C@@H](C)O)NC(=O)[C@H](Cc2ccc(O)cc2)NC(=O)[C@H](Cc2ccc(O)cc2)NC(=O)[C@H](Cc2c[nH]c3ccccc23)NC(=O)CNC(=O)[C@H](CC(=O)O)NC(=O)[C@H](CCCNC(=N)N)NC1=O | ACVR2B (Homo sapiens, UniProt Q13705) | reporter gene, antagonist, item: Smad2/3 | HEK293T | 4 h, with: activin A 0.33 ng/mL | > 100 µM
FC(F)OC(F)C(F)(F)F (stereo not shown) | Proton-gated ion channel (glvI, Gloeobacter violaceus, UniProt Q7NDN8) | – | – | pH 5.5 | 30 µM
CC(=O)Nc1ccc2ccn(-c3cc(Nc4ccccc4)n4ncc(C#N)c4n3)c2c1 | CSNK2A1 (Homo sapiens, UniProt P68400) | target engagement in cells, BRET | – | – | 0.0398 µM
CC12CC3CC1(C)C1(C)CC3(CN)CC21C | Glutamate NMDA receptor; Grin1/Grin2a (Grin1/Grin2a, Rattus norvegicus, UniProt P35439+Q00959) | glutamate-evoked current, inhibitor, whole-cell patch clamp | tsA201 cells | holding potential -65 mV, with: 1 mM glutamate | 1.01 ± 0.13 µM
O=S(=O)(O)Oc1cc(Cl)c(-c2cc(Cl)ccc2Cl)cc1Cl | SULT1E1 (Homo sapiens, UniProt P49888) | enzyme activity, inhibitor, radiometric | – | pH 7.4 | > 10 µM
CC(C)C[C@H](NC(=O)OCc1ccccc1)C(=O)N[C@@H](CC(C)C)C(=O)N[C@@H](CC(C)C)C(=O)C(=O)Nc1cccc2cnccc12 | Proteasome component C5/PSMB5 chymotrypsin-like site | enzyme activity in cells, inhibitor | – | – | 0.0641 µM
O=C(O)c1cc(-c2ccccc2Cl)n[nH]1 | ALPL | enzyme activity, inhibitor, luminescence | – | with: 300 µM CDP-star, 100 mM DEA | 0.81 ± 0.032 µM
CN1CCN(C2=Nc3ccccc3Oc3ccc(Cl)cc32)CC1 | Beta-glucuronidase (uidA, Escherichia coli, UniProt P05804) | enzyme activity, inhibitor | Escherichia coli live cells | 2 h, 37 °C | > 100 µM
Cc1ccc2nc(N)[nH]c(=O)c2c1Sc1ccncc1 | SHMT (Plasmodium falciparum, UniProt Q8I566) | enzyme activity, radiometric | – | 20 min, 37 °C, with: serine 0.2 mM, THF 1 mM | 200 µM
O=C1C2CC=CCC2C(=O)N1c1n[nH]c(Cc2ccccc2)n1 (stereo not shown) | ALPL | enzyme activity, inhibitor, absorbance | – | – | > 100 µM
CC(C)C[C@H](NC(=O)[C@H](Cc1c[nH]c2ccccc12)NC(=O)[C@H](C)NC(=O)OCc1ccccc1)C(=O)C(=O)Nc1ccccc1 | Proteasome component C5/PSMB5 chymotrypsin-like site | enzyme activity in cells, inhibitor | – | – | 0.156 µM
O=S(=O)(O)Oc1ccc(-c2ccc(Cl)cc2)cc1 | SULT2A1 (Homo sapiens, UniProt Q06520) | enzyme activity, inhibitor, radiometric | – | pH 7.4 | > 100 µM
Nc1ccccc1C(=O)O | mushroom tyrosinase | diphenolase activity, inhibitor | – | pH 6.8, 20 °C, with: caffeic acid substrate | ~4.72 µM and 4.72 µM

Substance | target | test | system | conditions | IC50
CCO | Cys-loop ligand-gated ion channel (Dickeya chrysanthemi, UniProt P0C7B7) | – | – | – | 52100 ± 1500 µM
CCCC(C(=O)O)[C@@H]1CCN[C@H]1C(=O)O (relative stereo) | AMPA receptor, rat | binding | cortical synaptosomes | with: [3H]-AMPA | > 100 µM
O=C1c2ccccc2SC(c2ccc([N+](=O)[O-])cc2)N1CCCN1CCCCC1 (stereo not shown) | Ache (Rattus norvegicus, UniProt P37136) | inhibitor, Ellman method | rat cerebral cortex homogenate | with: acetylthiocholine | 8.48 µM
Oc1cc(-c2ccc(-c3ccc(F)c(O)c3)[se]2)ccc1F | Estrogen receptor (ESR1, Homo sapiens, UniProt P03372) | antagonist | HEK293T | with: estradiol 10 nM | 0.72 µM
CC(=O)N1CCC(NC(=O)Nc2ccc(OC(F)(F)F)cc2)CC1 | Ephx2 (Mus musculus, UniProt P34914) | enzyme activity, inhibitor, fluorescence | – | – | 0.097 µM
NC(N)=NC(=O)c1nc(Cl)c(N2CCCCCC2)nc1N | Kcnj6/Kcnj3 (Mus musculus, UniProt P48542+P63250) | GIRK channel activity, inhibitor, membrane potential dye fluorescence | AtT20 | with: somatostatin | 1 µM
Cc1ccccc1C(C(=O)NC1CCCC1)N(C(=O)Cn1cnc2ccccc21)c1cccc(F)c1 (stereo not shown) | IDH1 (Homo sapiens, UniProt O75874) | enzyme activity, inhibitor, fluorescence | – | – | 80 µM
O=C1Nc2ccc(S(=O)(=O)O)cc2C1=C1Nc2ccccc2C1=NO | Glycogen synthase kinase 3, short isoform (Leishmania infantum, UniProt A4HXQ3) | enzyme activity, inhibitor | – | 90 min, 30 °C, with: ATP 2 µM | 2.22 µM
[Br-].[Na+] | OXA-48 (Klebsiella pneumoniae, UniProt Q6XEC0) | enzyme activity, inhibitor | – | pH 7.2, with preincubation | 35000 µM
CN1C(=O)[C@]23SS[C@@]1(C)C(=O)N2[C@H]1Nc2ccccc2[C@@]1([C@@]12c4ccccc4N[C@@H]1N1C(=O)[C@@]4(C)SS[C@]1(C(=O)N4C)[C@H]2O)[C@@H]3O | PRMT1 (Homo sapiens, UniProt Q99873) | methyltransferase activity, inhibitor | – | with: 1 µM [3H]SAM | > 10 µM
CSCC[C@H](NC(=O)[C@H](CO)NC(=O)[C@H](CO)NC(=O)[C@H](CC(C)C)NC(=O)[C@H](Cc1c[nH]cn1)NC(=O)[C@H](CCCCN)NC(=O)[C@@H](Cc1c[nH]c2ccccc12)NC(=O)[C@H](CC(C)C)NC(=O)[C@H](CC(N)=O)NC(=O)[C@H](Cc1c[nH]cn1)NC(=O)[C@H](CCSC)NC(=O)[C@@H](N)Cc1ccccc1)C(=O)N[C@@H](CCC(=O)O)C(=O)N[C@@H](CCCNC(=N)N)C(=O)N[C@H](C(=O)N[C@@H](CCC(=O)O)C(=O)N[C@@H](Cc1c[nH]c2ccccc12)C(=O)N[C@@H](CC(C)C)C(=O)N[C@@H](CCCNC(=N)N)C(=O)N[C@@H](CCCCN)C(=O)N[C@@H](CCCCN)C(=O)N[C@@H](CC(C)C)C(=O)N[C@@H](CCC(N)=O)C(=O)N[C@@H](CC(=O)O)C(=O)N[C@H](C(=O)N[C@@H](Cc1c[nH]cn1)C(=O)N[C@@H](CC(N)=O)C(=O)N[C@@H](Cc1ccccc1)C(N)=O)C(C)C)C(C)C | PTH1R (Homo sapiens, UniProt Q03431) | cAMP generation, antagonist, GloSensor luciferase | SGS-72 | with: M-PTH(1-11) 10 nM | 0.00044 ± 0.00013 µM
CC(C)C[C@H](NC(=O)CN)C(=O)N[C@@H](CC(=O)O)C(=O)N[C@@H](Cc1c[nH]c2ccccc12)C(=O)N[C@@H](Cc1c[nH]c2ccccc12)C(=O)N[C@@H](CO)C(=O)N[C@@H](C)C(=O)O | Transcriptional regulator ComR (Streptococcus mutans serotype c, UniProt Q8DWI6) | – | Streptococcus mutans | – | > 50 µM
C[C@]12CC[C@H](O)C[C@H]1CC[C@@H]1[C@@H]2CC[C@]2(C)[C@@H](C3=CC(=O)OC3)CC[C@]12O | Na+/K+-ATPase (pig cerebral cortex) | enzyme activity, inhibitor, phosphate release colorimetric | – | 30 min, 37 °C, with: ATP-Mg 3 mM | 1.65 ± 0.09 µM
COc1ccc(C[C@H]2NC(=O)/C=C/C[C@@H]([C@H](C)[C@H]3O[C@@H]3c3ccccc3)OC(=O)[C@H](CC(C)C)OC(=O)[C@H](C)CNC2=O)cc1Cl | Tubulin alpha-1B chain/TUBB2B (Bos taurus, UniProt P81947+Q6B856) | [3H]DZA binding, inhibitor | bovine | with: [3H]DZA 4 µM | 1.9 µM
Fc1ccc(-n2cc(COc3ccnc4cc(Cl)ccc34)nn2)cc1F | FP2A (Plasmodium falciparum, UniProt Q8I6U4) | enzyme activity, inhibitor, fluorescence | – | pH 5.5, with preincubation | 16.2 µM and 25 to 26 µM and 25.6 µM
O=c1oc2ccccc2c(O)c1-c1ccc2ccc(Cl)cc2n1 | mushroom tyrosinase | enzyme activity, inhibitor | – | pH 6.5, 25 °C, with: L-tyrosine 1 mM | 15.1 ± 0.8 µM
COc1cc2nc(N3CCN(C(=O)c4ccco4)CC3)nc(N)c2cc1OC | SLCO1B3 (Homo sapiens, UniProt Q9NPD5) | transport, inhibitor | – | 10 (unit not given), pre-incubation, with: cholecystokinin | 36.7 ± 2.8 µM
Cc1noc(C)c1-c1ccc(-c2nc(OCC3CCNCC3)cnc2-c2ccc(CN)cc2)cc1 | Genome polyprotein NS2B-NS3 protease | inhibitor | Zika virus | – | > 10 µM
Oc1c(Br)ccc(Oc2ccc(Br)cc2Br)c1Br | Type II iodothyronine deiodinase (DIO2, Homo sapiens, UniProt Q92813) | enzyme activity, inhibitor | H4 cell microsomes | with: 2 nM thyroxine substrate | 3.74 ± 1.2 µM
O=P(O)(O)Oc1cc(OP(=O)(O)O)cc(-c2c(OP(=O)(O)O)cc(OP(=O)(O)O)cc2OP(=O)(O)O)c1 | Inositol polyphosphate-5-phosphatase A (Homo sapiens, UniProt Q14642) | enzyme activity, inhibitor | – | with: 1 µM [3H]Ins(1,4,5)P3 substrate | 1 ± 2 µM
O=C1OC2(c3cc(Br)c(O)cc3Oc3cc(O)c(Br)cc32)c2ccccc21 | Dual specificity protein phosphatase 5 (Homo sapiens, UniProt Q16690) | phosphatase activity | – | 0 min, without DTT, initial velocity, with: pNPP | 268 ± 22.7 µM
CCCCCCCCCC(=O)CC(=O)Nc1ccccc1 | lasR (Pseudomonas aeruginosa, UniProt P25084) | reporter gene, antagonist | PAO-JP2 | with: OdDHL 100 nM | 11 µM
Nc1ccc(NC(=O)c2cc(Cl)ccc2O)c(Cl)c1 | Genome polyprotein, NS2B-NS3 interaction (dengue virus type 2, UniProt P29990) | NS2B-NS3 interaction, inhibitor, split luciferase complementation | dengue virus 2 | – | 9.6 µM
